Measurements collected from several papers.
Lines come from different studies, so protocols differ. ± marks the error that the study gave.
B1: enzyme A497K (Streptomyces platensis, UniProt A0A0A0V031); chain MQHTTIGDVLREHRRSHPGRTALVDGPVRLTWPELDDRVNRLAGSLAASGIGRGDRIMWLGQNSFRVYELIAAAGKLGAMVCVGYWRWAPPEMEFALRDFDPHLVVWQHQEIHETVARTREALGSDDTARWLRHDSAPQDPDGYEAFLAAGGLADPDLDIDPDSPVLVLYTAAMSGRQCGSLLSHTNLIAMATAAAWLGDIDHTTAFLNSGPMFHIGNHQFWGMPTLLMAGKNVIVRRVVAEEVRDLLVAEECTHAFLMPPTVAEIVRLNRDTGHDLSRLRATVAPHLWEGMATTDTSRFTRSGAAAGRGYGQTELSGFAVTAAYGGPAAGNAGRPGPGLTVRVLDTAGRECAVGEAGEICARGTVVHRGYWNRDEVNAHRFRSGWWHTTDLGRREPDGSLTFLGTTTRMLKSAAENIFPAEVENCIEQHPAVREAAVIGVPNTRWAQDVKAVVVLEPDAGVSEQEIIDHCRPRIASYKKPKSVAFAAALPRTVSGKRDYDALDKEYGGGGYPGAATLGPGR
B2: SULT2A1 (Homo sapiens, UniProt Q06520); chain MSDDFLWFEGIAFPTMGFRSETLRKVRDEFVIRDEDVIILTYPKSGTNWLAEILCLMHSKGDAKWIQSVPIWERSPWVESEIGYTALSETESPRLFSSHLPIQLFPKSFFSSKAKVIYLMRNPRDVLVSGYFFWKNMKFIKKPKSWEEYFEWFCQGTVLYGSWFDHIHGWMPMREEKNFLLLSYEELKQDTGRTIEKICQFLGKTLEPEELNLILKNSSFQSMKENKMSNYSLLSVDYVVDKAQLLRKGVSGDWKNHFTVAQAEDFDKLFQEKMADLPRELFPWE
UniProt P21729, sequence (whole entry, looked up): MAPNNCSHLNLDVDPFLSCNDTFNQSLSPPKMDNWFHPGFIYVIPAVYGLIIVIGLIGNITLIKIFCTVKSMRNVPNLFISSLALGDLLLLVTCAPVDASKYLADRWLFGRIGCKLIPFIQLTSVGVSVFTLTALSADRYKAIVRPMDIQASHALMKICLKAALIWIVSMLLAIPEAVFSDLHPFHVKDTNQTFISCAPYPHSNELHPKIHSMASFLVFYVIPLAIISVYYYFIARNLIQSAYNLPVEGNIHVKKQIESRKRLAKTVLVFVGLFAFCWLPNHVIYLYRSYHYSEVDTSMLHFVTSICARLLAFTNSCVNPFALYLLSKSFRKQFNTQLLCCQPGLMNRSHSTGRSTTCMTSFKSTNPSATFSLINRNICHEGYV

CCCNC(=O)[C@H](CC(C)C)NC(=O)[C@H](Cc1c[nH]cn1)NC(=O)CNC(=O)[C@@H](NC(=O)[C@H](C)NC(=O)[C@H](Cc1c[nH]c2ccccc12)NC(=O)[C@H](CCC(N)=O)NC(=O)[C@@H](Cc1ccccc1)NC(=O)CCCCCNC(=O)CN1CCN(CC(=O)O)CCN(CC(=O)O)CCN(CC(=O)O)CC1)C(C)C [indium-111 labelled]
tissue uptake (Gastrin-releasing peptide receptor (Mus musculus, UniProt P21729); biodistribution; CF-1 mice, lung; intravenous, 1 h, unblocked): 1.37 ± 0.08 %ID/g

N=C(N)NCCC[C@@H]1NC(=O)[C@H](CCCCNC(=O)CNC(=O)CNC(=O)CNC(=O)CC[C@H](NC(=O)CCOCCOCCOCCOCCNC(=O)CC[C@H](NC(=O)CN2CCN(CC(=O)O)CCN(CC(=O)O)CCN(CC(=O)O)CC2)C(=O)NCCOCCOCCOCCOCCC(=O)N[C@@H](CCC(=O)NCC(=O)NCC(=O)NCC(=O)NCCCC[C@@H]2NC(=O)[C@@H](Cc3ccccc3)NC(=O)[C@H](CC(=O)O)NC(=O)CNC(=O)[C@H](CCCNC(=N)N)NC2=O)C(=O)NCC(=O)NCC(=O)NCC(=O)NCCCC[C@@H]2NC(=O)[C@@H](Cc3ccccc3)NC(=O)[C@H](CC(=O)O)NC(=O)CNC(=O)[C@H](CCCNC(=N)N)NC2=O)C(=O)NCC(=O)NCC(=O)NCC(=O)NCCCC[C@@H]2NC(=O)[C@@H](Cc3ccccc3)NC(=O)[C@H](CC(=O)O)NC(=O)CNC(=O)[C@H](CCCNC(=N)N)NC2=O)NC(=O)[C@@H](Cc2ccccc2)NC(=O)[C@H](CC(=O)O)NC(=O)CNC1=O [indium-111 labelled]
tissue uptake (female athymic nude mice, eyes; intravenous, 3 µCi, 72 h, U-87 MG glioma xenograft): 0.35 ± 0.24 %ID/g

O=C(O)CC[C@H](NC(=O)N[C@@H](CCCCNC(=O)[C@H](Cc1ccc2ccccc2c1)NC(=O)[C@H]1CC[C@H](CNC(=O)CNC(=O)CNC(=O)CNC(=O)CN2CCN(CC(=O)O)CCN(C(CCC(=O)NCCC[P+](c3ccccc3)(c3ccccc3)c3ccccc3)C(=O)O)CCN(CC(=O)O)CC2)CC1)C(=O)O)C(=O)O (stereo partly drawn) [terbium-161 labelled]
intact radiocomplex (radio-HPLC; tumour-bearing mice, plasma; iv, 5 MBq, 10 min): 97.1 ± 4.4%

CC[C@@]1(O)C(=O)OCc2c1cc1n(c2=O)Cc2cc3cc(OC(=O)CCCC(=O)NCC(=O)N[C@@H](Cc4ccccc4)C(=O)N[C@@H](Cc4ccccc4)C(=O)N[C@@H](Cc4ccc(OP(=O)(O)O)cc4)C(=O)NCCSSCCNC(=O)CCC(=O)N[C@@H](CCC(=O)O)C(=O)N[C@@H](CCCNC(=N)N)C(=O)NCC(=O)N[C@@H](CC(=O)O)C(=O)O)ccc3nc2-1
filament diameter (HepG2; TEM; intracellular; 100 µM, 2 h): 7 ± 2 nm

CC[C@H](C)[C@H](NC(=O)[C@H](CCN)NC(=O)CCCCCCCCCCCNC(=O)CCCCCOC(=O)c1cn(C2CC2)c2cc(N3CCNCC3)c(F)cc2c1=O)C(=O)N[C@@H](CCN)C(=O)N[C@H](Cc1ccccc1)C(=O)N[C@@H](CC(C)C)C(=O)N[C@@H](CCN)C(=O)N[C@@H](C(=O)N[C@@H](CC(C)C)C(=O)N[C@@H](CO)C(N)=O)C(C)C
viability (BEAS-2B; MTT; 50 µM, 24 h): > 90%

N=C(N)NCCC[C@@H]1NC(=O)[C@H](CCCCNC(=O)CCOCCOCCOCCOCCNC(=O)CC[C@H](NC(=O)CCOCCOCCOCCOCCNC(=O)CC[C@H](NC(=O)CN2CCN(CC(=O)O)CCN(CC(=O)O)CCN(CC(=O)O)CC2)C(=O)NCCOCCOCCOCCOCCC(=O)N[C@@H](CCC(=O)NCCOCCOCCOCCOCCC(=O)NCCCC[C@@H]2NC(=O)[C@@H](Cc3ccccc3)NC(=O)[C@H](CC(=O)O)NC(=O)CNC(=O)[C@H](CCCNC(=N)N)NC2=O)C(=O)NCCOCCOCCOCCOCCC(=O)NCCCC[C@@H]2NC(=O)[C@@H](Cc3ccccc3)NC(=O)[C@H](CC(=O)O)NC(=O)CNC(=O)[C@H](CCCNC(=N)N)NC2=O)C(=O)NCCOCCOCCOCCOCCC(=O)NCCCC[C@@H]2NC(=O)[C@@H](Cc3ccccc3)NC(=O)[C@H](CC(=O)O)NC(=O)CNC(=O)[C@H](CCCNC(=N)N)NC2=O)NC(=O)[C@@H](Cc2ccccc2)NC(=O)[C@H](CC(=O)O)NC(=O)CNC1=O [indium-111 labelled]
tissue uptake (female athymic nude mice, intestine; intravenous, 3 µCi, 4 h, U-87 MG glioma xenograft): 10.4 ± 2.03 %ID/g

B1 (enzyme A497K)
Km (C[C@@]12CCC[C@@](C)(C(=O)OP(=O)(O)OC[C@H]3O[C@@H](n4cnc5c(N)ncnc54)[C@H](O)[C@@H]3O)[C@H]1C[C@@H](O)[C@]13C[C@H]4C[C@H](O[C@@]4(C)C1)[C@@H]23; steady-state kinetics; pH 7.8, 25 °C): 1.6 µM

B2 (SULT2A1)
Vmax (C[C@]12CC[C@H](O)CC1CCC1C2[C@H](O)C(=O)[C@]2(C)[C@@H](c3ccc(=O)oc3)CC[C@]12O; steady-state kinetics; pH 7.4, 37 °C, sulfation by SULT2A1, not purified): 0.003 µmol/min/mg

NCCOCCOCCOCCOCCOCCOCCC(=O)NCCC(=O)NCCCC[C@H](NC(=O)CCNC(=O)CCOCCOCCOCCOCCOCCOCCN)C(=O)NCCOCCOCCOCCOCCOCCOCCC(=O)NCCC(=O)NCCCC[C@H](NC(=O)CCNC(=O)CCOCCOCCOCCOCCOCCOCCNC(=O)[C@H](CCCCNC(=O)CCNC(=O)CCOCCOCCOCCOCCOCCOCCN)NC(=O)CCNC(=O)CCOCCOCCOCCOCCOCCOCCN)C(=O)NCCOCCOCCOCCOCCOCCOCCC(=O)NCCC(=O)NCCCC[C@H](NC(=O)CCNC(=O)CCOCCOCCOCCOCCOCCOCCNC(=O)[C@H](CCCCNC(=O)CCNC(=O)CCOCCOCCOCCOCCOCCOCCNC(=O)[C@H](CCCCNC(=O)CCNC(=O)CCOCCOCCOCCOCCOCCOCCN)NC(=O)CCNC(=O)CCOCCOCCOCCOCCOCCOCCN)NC(=O)CCNC(=O)CCOCCOCCOCCOCCOCCOCCNC(=O)[C@H](CCCCNC(=O)CCNC(=O)CCOCCOCCOCCOCCOCCOCCN)NC(=O)CCNC(=O)CCOCCOCCOCCOCCOCCOCCN)C(=O)NCCOCCOCCOCCOCCOCCOCCC(=O)N[C@@H](CCCCNC(=O)c1ccc2c(c1)C(=O)OC21c2ccc(O)cc2Oc2cc(O)ccc21)C(=O)NCCC(=O)O
viability (J774.E macrophages; MTT; 40 nM, 1 h, 37 °C, 10% FBS, with or without mannan; reference: untreated): not toxic

CC(C)C[C@H](NC(=O)[C@@H]1CCCN1C(=O)[C@H](CCCCN)NC(=O)[C@@H](N)CO)C(=O)N1CCC[C@H]1C(=O)N[C@@H](CCC(=O)O)C(=O)N[C@H](C(=O)N[C@H](C(=O)N[C@@H](CC(=O)O)C(=O)N[C@@H](CCC(=O)O)C(=O)N[C@@H](Cc1ccc(O)cc1)C(=O)N[C@@H](Cc1cn(CCOCCOCCOCCNC(=O)CCc2ccc(O)c(CN(CCN(CC(=O)O)Cc3cc(CCC(=O)NCCCC[C@H](NC(=O)N[C@@H](CCC(=O)O)C(=O)O)C(=O)O)ccc3O)CC(=O)O)c2)nn1)C(=O)O)[C@@H](C)O)C(C)C [gallium-68 labelled]
SUV (NMRI nu/nu mouse, LNCaP xenograft, brown adipose tissue; 10 MBq, high molar activity): 0.12 g/g

C=Cc1c(C)c2cc3nc(c4c5[nH]c(cc6nc(cc1[nH]2)C(C)=C6CC)c(C)c5C(=O)C4)[C@@H](CCC(=O)NCC(=O)N1CCC[C@H]1C(=O)N[C@@H](CC(C)C)C(=O)NCC(=O)N[C@@H](Cc1ccccc1)C(=O)N[C@@H](CCCNC(=N)N)C(=O)N[C@H](C(=O)NCC(=O)N[C@@H](CCCCN)C(N)=O)C(C)C)[C@@H]3C
fluorescent cells (OA patient synovial fibroblasts; flow cytometry, item: cellular uptake; 1 µM, 1 h): 30 ± 10%

CCCC[C@H](NC(=O)CNC(=O)CNC(=O)c1ccc(NN)nc1)C(=O)N[C@H]1CC(=O)NCCCC[C@@H](C(N)=O)NC(=O)[C@H](Cc2c[nH]c3ccccc23)NC(=O)[C@H](CCCNC(=N)N)NC(=O)[C@@H](Cc2ccccc2)NC(=O)[C@H](Cc2c[nH]cn2)NC1=O [technetium-99m labelled]
uptake ratio (C57 mouse, B16/F1 melanoma; 2 h, with: NDP-MSH blockade; reference: tumour over muscle): 15

For quick reference, copied from above:
B1 (enzyme A497K)
Km (C[C@@]12CCC[C@@](C)(C(=O)OP(=O)(O)OC[C@H]3O[C@@H](n4cnc5c(N)ncnc54)[C@H](O)[C@@H]3O)[C@H]1C[C@@H](O)[C@]13C[C@H]4C[C@H](O[C@@]4(C)C1)[C@@H]23; steady-state kinetics; pH 7.8, 25 °C): 1.6 µM
